# Measured values pooled from the literature.
# Each line is one published result; not all experiments were run side by side. Numbers after ± are the reported error.
Structure (SMILES),tested on,test,test system,setting,how to read,quantity,result
COC1CN([C@H]2CC[C@H]([C@@]3(C)Oc4c(Cl)cc(C(=O)NCc5c(SC)cc(C)[nH]c5=O)c(C)c4O3)CC2)C1,,"RNA-seq, item: SGCB mouse homolog","mouse, HT-1376 xenograft, whole blood",dose not given,relative to: vehicle,log2 fold change,0.776
COc1ccc(C(=O)CCc2cc(C(CCc3ccc(O)cc3OC)c3ccc(O)cc3)c(O)cc2OC)cc1 (racemic),,,human blood,"1 µM, added: A23187",,PGD2 level,9 ± 5 pg/mL
Cc1ncsc1-c1ccc(C(C)NC(=O)C2CC(O)CN2C(=O)C(NC(=O)CCCCCCCCCCN2CCCC(Nc3ncc(Cl)c(Nc4ccccc4S(=O)(=O)C(C)C)n3)C2)C(C)(C)C)cc1 (centres unmarked),22Rv1,"RNA-seq, item: RGL4 mRNA",,concentration not given,relative to: DMSO,log2 fold change,-1.48
CN1CCCNC(=O)c2cccc(c2)C(=O)NCCCN(C)CCCNc2cccc3c2C(=O)c2cccc(c2C3=O)NCCC1,SAS,"RNA-Seq, item: PLOD2 mRNA",,"1 µM, 6 h",relative to: untreated cells,log2 fold change,-1.69
CNS(=O)(=O)Nc1nccc(Cc2c(C)c3ccc(Oc4ncccc4F)cc3oc2=O)c1F,NCI-H2228,cell viability,,7 days,,IC50,> 1000 nM
CN1CCC[C@]1(C)/C=C/S(=O)(=O)NC(=O)Nc1c2c(cc3c1CCC3)CCC2,,,"human, whole blood ex vivo","12.5 mg twice daily, day 1, 6 h, multiple ascending dose, added: LPS and ATP",,IL-18 inhibition,96.5%
CC(=O)[O-].O.O.O.O.[Co+2].[O-]c1ccc(Br)cc1C=NCCN1CCOCC1,,superoxide scavenging,,120 µM,,inhibition,26.5%
Nc1ncc(-c2cc(-c3cnn(CC(F)(F)F)c3)ncc2F)nc1C(=O)NC1CNCC(F)C1 (centres unmarked),p38-beta,KINOMEscan competition binding,,1 µM,relative to: DMSO control,remaining binding,94%
CCN(CC)CC(=O)Nc1cccc(-n2cc(-c3ccc4ccc(-c5cn(-c6cccc(NC(=O)CN(CC)CC)c6)nn5)cc4c3)nn2)c1,RCC4,"PCR angiogenesis array, item: PGF",,"5 x IC50, 6 h, normoxia",relative to: untreated,fold regulation,-1.79
C=CC(=O)Nc1cccc(Cn2ncc3cnc(Nc4cnn(CCOC)c4)nc32)c1,ACVRL1 human,"binding, KINOMEscan",,100 nM,lower = stronger binding,percent of control,100%
COc1cc(O)ccc1CCC(c1ccc(O)cc1)c1cc2c(c(C)c1O)OC(c1ccc(O)cc1)CC2 (mixture of isomers),,,human blood,"0.3 µM, added: A23187",,5-HEPE level,94 ± 24 pg/mL

# For quick reference, copied from above:
Structure (SMILES),tested on,test,test system,setting,how to read,quantity,result
CN1CCC[C@]1(C)/C=C/S(=O)(=O)NC(=O)Nc1c2c(cc3c1CCC3)CCC2,,,"human, whole blood ex vivo","12.5 mg twice daily, day 1, 6 h, multiple ascending dose, added: LPS and ATP",,IL-18 inhibition,96.5%
CNS(=O)(=O)Nc1nccc(Cc2c(C)c3ccc(Oc4ncccc4F)cc3oc2=O)c1F,NCI-H2228,cell viability,,7 days,,IC50,> 1000 nM
